Measured values from different studies.
Several values in a cell are separate wells, animals, samples, runs or records. ± marks the error that the study gave.
BCHE: Cholinesterase (BCHE, Equus caballus, UniProt P81908)
UniProt P81908, sequence (whole entry, looked up): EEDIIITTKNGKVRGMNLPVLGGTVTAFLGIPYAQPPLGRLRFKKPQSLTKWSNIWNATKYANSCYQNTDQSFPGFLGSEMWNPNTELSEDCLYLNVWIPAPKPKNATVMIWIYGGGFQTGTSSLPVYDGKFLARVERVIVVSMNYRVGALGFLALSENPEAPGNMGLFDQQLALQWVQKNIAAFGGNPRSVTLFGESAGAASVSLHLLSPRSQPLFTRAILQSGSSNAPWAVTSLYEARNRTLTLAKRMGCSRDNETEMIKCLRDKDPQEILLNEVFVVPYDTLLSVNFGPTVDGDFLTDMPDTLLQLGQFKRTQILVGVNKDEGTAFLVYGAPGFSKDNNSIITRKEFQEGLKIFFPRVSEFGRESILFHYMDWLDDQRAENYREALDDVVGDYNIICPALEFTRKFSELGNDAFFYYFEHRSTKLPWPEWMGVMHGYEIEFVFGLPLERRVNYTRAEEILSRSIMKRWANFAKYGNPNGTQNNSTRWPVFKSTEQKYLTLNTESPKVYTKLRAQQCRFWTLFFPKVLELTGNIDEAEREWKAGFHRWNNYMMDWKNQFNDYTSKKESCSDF
UniProt Q12809, sequence (whole entry, looked up): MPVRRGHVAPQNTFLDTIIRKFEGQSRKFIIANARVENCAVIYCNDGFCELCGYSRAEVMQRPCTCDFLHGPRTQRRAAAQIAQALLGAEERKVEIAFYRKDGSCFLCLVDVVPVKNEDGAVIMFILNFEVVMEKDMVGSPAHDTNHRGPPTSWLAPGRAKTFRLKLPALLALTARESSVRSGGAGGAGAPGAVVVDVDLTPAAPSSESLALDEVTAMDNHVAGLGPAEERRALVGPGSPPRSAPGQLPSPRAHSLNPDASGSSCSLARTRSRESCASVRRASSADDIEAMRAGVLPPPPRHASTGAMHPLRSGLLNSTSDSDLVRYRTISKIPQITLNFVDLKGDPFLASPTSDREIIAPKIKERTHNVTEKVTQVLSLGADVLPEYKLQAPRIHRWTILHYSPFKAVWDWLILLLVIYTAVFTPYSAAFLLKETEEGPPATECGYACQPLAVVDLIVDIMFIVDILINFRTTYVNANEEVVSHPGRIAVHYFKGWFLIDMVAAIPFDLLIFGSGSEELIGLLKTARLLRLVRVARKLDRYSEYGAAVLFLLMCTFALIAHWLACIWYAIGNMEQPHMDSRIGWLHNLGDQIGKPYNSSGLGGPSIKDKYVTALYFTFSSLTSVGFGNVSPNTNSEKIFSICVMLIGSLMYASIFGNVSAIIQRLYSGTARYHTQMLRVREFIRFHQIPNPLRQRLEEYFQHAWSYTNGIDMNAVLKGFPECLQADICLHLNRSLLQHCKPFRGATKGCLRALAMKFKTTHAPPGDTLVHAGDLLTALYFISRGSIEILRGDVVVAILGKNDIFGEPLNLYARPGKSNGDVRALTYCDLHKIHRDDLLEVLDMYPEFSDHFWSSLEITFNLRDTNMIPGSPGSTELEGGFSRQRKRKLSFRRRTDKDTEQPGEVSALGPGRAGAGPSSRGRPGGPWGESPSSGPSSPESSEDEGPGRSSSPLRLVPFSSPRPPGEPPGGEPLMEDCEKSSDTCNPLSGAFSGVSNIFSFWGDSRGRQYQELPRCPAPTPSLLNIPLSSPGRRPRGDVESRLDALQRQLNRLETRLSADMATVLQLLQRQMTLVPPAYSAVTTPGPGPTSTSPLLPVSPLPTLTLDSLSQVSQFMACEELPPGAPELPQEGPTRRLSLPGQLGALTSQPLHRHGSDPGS
UniProt P10408, sequence (whole entry, looked up): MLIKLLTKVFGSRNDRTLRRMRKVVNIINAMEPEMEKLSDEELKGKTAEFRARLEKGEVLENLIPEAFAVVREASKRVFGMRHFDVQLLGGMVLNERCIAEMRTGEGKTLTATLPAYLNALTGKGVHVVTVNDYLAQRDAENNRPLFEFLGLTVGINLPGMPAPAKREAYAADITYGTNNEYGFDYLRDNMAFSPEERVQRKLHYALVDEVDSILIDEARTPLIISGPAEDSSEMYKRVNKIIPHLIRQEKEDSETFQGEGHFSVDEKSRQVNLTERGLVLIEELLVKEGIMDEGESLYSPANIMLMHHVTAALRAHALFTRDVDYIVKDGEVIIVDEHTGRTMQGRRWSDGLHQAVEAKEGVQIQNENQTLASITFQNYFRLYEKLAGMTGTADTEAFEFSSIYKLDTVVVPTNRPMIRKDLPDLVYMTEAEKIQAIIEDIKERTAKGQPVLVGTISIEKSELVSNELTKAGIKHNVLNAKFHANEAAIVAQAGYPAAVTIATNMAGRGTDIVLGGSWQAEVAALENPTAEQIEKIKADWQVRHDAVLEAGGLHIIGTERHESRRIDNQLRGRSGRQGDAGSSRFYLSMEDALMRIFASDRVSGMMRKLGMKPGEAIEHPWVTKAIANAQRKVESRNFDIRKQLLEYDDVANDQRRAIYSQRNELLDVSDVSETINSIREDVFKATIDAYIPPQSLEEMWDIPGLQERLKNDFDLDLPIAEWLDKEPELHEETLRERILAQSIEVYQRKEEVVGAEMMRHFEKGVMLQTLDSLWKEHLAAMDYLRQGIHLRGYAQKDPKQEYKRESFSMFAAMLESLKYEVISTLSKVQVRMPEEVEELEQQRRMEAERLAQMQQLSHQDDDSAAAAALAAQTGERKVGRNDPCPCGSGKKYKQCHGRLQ
UniProt Q5XI64, sequence (whole entry, looked up): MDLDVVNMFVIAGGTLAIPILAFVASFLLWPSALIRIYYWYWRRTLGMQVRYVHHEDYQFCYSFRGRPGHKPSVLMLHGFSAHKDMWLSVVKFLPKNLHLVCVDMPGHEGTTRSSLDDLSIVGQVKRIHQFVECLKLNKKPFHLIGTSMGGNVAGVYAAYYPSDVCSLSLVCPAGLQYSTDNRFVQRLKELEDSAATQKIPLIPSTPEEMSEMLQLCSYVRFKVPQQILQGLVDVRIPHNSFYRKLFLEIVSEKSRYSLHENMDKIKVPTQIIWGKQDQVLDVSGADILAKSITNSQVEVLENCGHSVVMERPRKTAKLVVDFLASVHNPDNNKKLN
UniProt P33527, sequence (whole entry, looked up): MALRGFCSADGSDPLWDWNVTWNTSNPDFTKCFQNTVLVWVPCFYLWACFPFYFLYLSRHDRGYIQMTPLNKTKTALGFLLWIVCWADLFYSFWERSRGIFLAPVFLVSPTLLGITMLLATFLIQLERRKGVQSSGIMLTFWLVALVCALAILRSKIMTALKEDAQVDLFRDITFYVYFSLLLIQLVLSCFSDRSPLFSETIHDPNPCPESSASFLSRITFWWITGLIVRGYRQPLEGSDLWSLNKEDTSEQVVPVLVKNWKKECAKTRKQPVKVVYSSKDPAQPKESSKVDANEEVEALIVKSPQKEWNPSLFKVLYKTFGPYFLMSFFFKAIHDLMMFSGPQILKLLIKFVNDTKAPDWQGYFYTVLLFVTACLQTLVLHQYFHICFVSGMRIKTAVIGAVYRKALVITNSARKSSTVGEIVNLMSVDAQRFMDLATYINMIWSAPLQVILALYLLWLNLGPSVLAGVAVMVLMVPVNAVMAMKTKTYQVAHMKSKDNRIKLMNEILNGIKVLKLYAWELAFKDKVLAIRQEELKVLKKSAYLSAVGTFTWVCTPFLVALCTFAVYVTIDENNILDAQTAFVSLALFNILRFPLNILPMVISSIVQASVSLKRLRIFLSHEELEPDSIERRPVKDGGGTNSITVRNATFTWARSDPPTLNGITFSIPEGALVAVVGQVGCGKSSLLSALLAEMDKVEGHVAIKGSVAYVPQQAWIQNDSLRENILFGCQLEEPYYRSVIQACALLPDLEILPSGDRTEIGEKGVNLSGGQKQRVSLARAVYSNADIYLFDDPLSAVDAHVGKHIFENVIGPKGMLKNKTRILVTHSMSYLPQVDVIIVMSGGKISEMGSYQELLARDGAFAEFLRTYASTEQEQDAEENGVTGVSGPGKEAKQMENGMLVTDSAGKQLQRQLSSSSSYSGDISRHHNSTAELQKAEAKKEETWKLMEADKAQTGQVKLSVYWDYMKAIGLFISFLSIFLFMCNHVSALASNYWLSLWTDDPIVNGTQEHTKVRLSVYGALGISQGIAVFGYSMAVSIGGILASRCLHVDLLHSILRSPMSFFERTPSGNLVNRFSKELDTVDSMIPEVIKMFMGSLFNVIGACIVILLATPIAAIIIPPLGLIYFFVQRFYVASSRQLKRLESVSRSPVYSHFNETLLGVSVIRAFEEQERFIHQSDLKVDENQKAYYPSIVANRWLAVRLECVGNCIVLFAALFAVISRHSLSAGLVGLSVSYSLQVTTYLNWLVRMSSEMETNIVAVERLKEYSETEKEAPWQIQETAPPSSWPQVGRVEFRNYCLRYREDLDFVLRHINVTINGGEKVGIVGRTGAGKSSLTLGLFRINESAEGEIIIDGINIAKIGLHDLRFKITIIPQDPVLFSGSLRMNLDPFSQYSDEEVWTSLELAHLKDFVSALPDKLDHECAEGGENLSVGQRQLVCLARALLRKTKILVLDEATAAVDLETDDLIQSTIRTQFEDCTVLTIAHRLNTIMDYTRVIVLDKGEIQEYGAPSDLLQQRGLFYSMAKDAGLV
UniProt Q00534, sequence (whole entry, looked up): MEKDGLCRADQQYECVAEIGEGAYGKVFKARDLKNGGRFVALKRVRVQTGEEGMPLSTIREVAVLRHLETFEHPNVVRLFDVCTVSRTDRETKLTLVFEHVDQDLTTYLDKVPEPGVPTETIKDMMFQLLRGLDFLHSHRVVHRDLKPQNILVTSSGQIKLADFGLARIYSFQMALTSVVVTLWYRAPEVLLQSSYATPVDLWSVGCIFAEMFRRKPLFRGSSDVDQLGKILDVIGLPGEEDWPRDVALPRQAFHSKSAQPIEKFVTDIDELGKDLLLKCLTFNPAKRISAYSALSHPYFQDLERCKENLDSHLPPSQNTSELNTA

O=C(O)c1cc[c]([Hg][Cl])cc1  IC50 (Trypanothione synthetase (Trypanosoma brucei brucei, UniProt Q586P2); enzyme activity, BIOMOL Green phosphate release; 1 h preincubation): 2.2 ± 0.05 µM
O=C([O-])[C@H]([O-])[C@@H]([O-])C(=O)[O-].O=C([O-])[C@H]([O-])[C@@H]([O-])C(=O)[O-].[K+].[K+].[Sb+3].[Sb+3]  IC50 (Thioredoxin glutathione reductase (Schistosoma mansoni, UniProt Q962Y6); enzyme activity, inhibitor, absorbance; with preincubation): 0.02 µM
Cc1ccc2cc3c(ccc4ccccc43)c3c2c1CC3  IC50 (Cytochrome P450 1B1 (CYP1B1, Homo sapiens, UniProt Q16678); enzyme activity, inhibitor; 5 s, pH 7.4): < 0.05 µM
C[C@@H]1C[C@H]2[C@@H]3CCC4=CC(=O)C=C[C@]4(C)[C@@]3(Cl)[C@@H](O)C[C@]2(C)[C@@]1(OC(=O)c1ccco1)C(=O)CCl  IC50 (ABCC1 (Homo sapiens, UniProt P33527); substrate efflux, inhibitor, flow cytometry; ABCC1-overexpressing SupT1-Vin cells; added: BODIPY-FL-histamine 500 nM): 3.7 ± 1 µM
[123I]c1cncc(OC[C@@H]2CCN2)c1  tissue/plasma ratio (SPECT; human, pons; intravenous bolus, 7.35 mCi; relative to: plasma): 45.5
O=C(O)c1ccccc1-c1c2ccc(=O)c([As]3SCCS3)c-2oc2c([As]3SCCS3)c(O)ccc12  IC50 (PTPN11 (Homo sapiens, UniProt Q06124, V368C); enzyme activity, inhibitor; catalytic domain; 120 min preincubation, added: pNPP): 0.03 µM
O=C(OC(C(F)(F)F)C(F)(F)F)N1CCC(C(O)(c2ccc3c(c2)OCO3)c2ccc3c(c2)OCO3)CC1  IC50 (Monoacylglycerol lipase ABHD6 (Abhd6, Rattus norvegicus, UniProt Q5XI64); competitive ABPP; rat brain membrane proteome): 1.6 µM
Fc1cccc(-n2cnc3c(NCc4nc5c(F)c(F)ccc5[nH]4)nc(N4CCOCC4)nc32)c1  IC50 (Cyclin-dependent kinase 6, with cyclin D1 (CDK6, Homo sapiens, UniProt Q00534); enzyme activity, inhibitor): 0.428 µM
Nc1ccc2cc3ccccc3cc2c1  IC50 (KCNH2 (Homo sapiens, UniProt Q12809); thallium influx, inhibitor, confirmation; hERG-transduced cells): 17 µM and 17.5 µM
OCC[S+](CCO)C[C@@H](O)[C@@H](O)CO  IC50 (Si (Rattus norvegicus, UniProt P23739); isomaltase activity, inhibitor; rat intestinal brush border vesicles; 30 min, pH 6.0, 37 °C, added: substrate 7.4 mM): > 380 µM
CC12CC3CC1(C)C1(C)CC3(N)CC21C  IC50 (NMDA receptor (rat); intracellular Ca2+ increase, inhibitor; rat cerebellar granule neurons; added: 100 µM NMDA plus 10 µM glycine): 4.1 ± 1.7 µM
O=C(O)C(=O)C=C(O)c1cn(Cc2ccc(F)cc2)c2cc(N3CCCC3)ccc2c1=O  IC50 (Gag-Pol polyprotein, integrase (gag-pol, Human immunodeficiency virus 1, UniProt P12497); concerted integration, inhibitor, measured: CHS products; 2 h, 37 °C): 1.76 ± 0.362 µM
CC(C)(O/N=C(\C(=O)N[C@@H]1C(=O)N2C(C(=O)[O-])=C(C[n+]3ccccc3)CS[C@H]12)c1csc(N)n1)C(=O)O  IC50 (mrcB (Pseudomonas aeruginosa, UniProt G3XD31); ligand displacement, fluorescence; cell membranes): 7.14 µM
O=C(O)c1cc2ccccc2c(Cc2c(O)c(C(=O)O)cc3ccccc23)c1O  IC50 (CRISPR-associated endonuclease Cas9/Csn1 (cas9, Streptococcus pyogenes serotype M1, UniProt Q99ZW2); ssDNA target strand cleavage, inhibitor; added: FAM ssDNA 87 nt, no PAM): > 200 µM
O=C(O)c1ccccc1-c1c2cc(I)c(=O)c(I)c-2oc2c(I)c(O)c(I)cc12  IC50 (secA (Escherichia coli, UniProt P10408); ATPase activity, inhibitor; full-length protein): 20 to 30 µM and 21 µM
COc1cc2cc(Oc3ccc4ccc(=O)oc4c3)c(=O)oc2cc1OC  IC50 (ACHE (Homo sapiens, UniProt P22303); enzyme activity, inhibitor): > 500 µM
O=C1Nc2ccc(S(=O)(=O)O)cc2C1=C1Nc2ccccc2C1=NO  IC50 (Putative glycogen synthase kinase (Leishmania major, UniProt Q4QE15, D105E); enzyme activity, inhibitor; 90 min, 30 °C, added: ATP 2 µM): 8.63 µM
CC[C@H](C)[C@H](NC(=O)[C@H](CO)NC(=O)[C@H](Cc1ccc(O)cc1)NC(=O)[C@H](CC(=O)O)NC(=O)[C@H](CO)NC(=O)[C@@H](NC(=O)[C@H](Cc1ccccc1)NC(=O)[C@@H](NC(=O)CNC(=O)[C@@H](N)CCC(=O)O)[C@@H](C)O)[C@@H](C)CC)C(=O)N[C@@H](C)C(=O)N[C@@H](CC(C)C)C(=O)N[C@@H](CC(=O)O)C(=O)N[C@@H](CCCCN)C(=O)N[C@H](C(=O)N[C@@H](CCCNC(=N)N)C(=O)N[C@@H](CCC(N)=O)C(=O)N[C@@H](CCC(N)=O)C(=O)N[C@@H](CCC(=O)O)C(=O)N[C@@H](Cc1ccccc1)C(=O)N[C@H](C(=O)N[C@@H](CC(N)=O)C(=O)N[C@@H](Cc1c[nH]c2ccccc12)C(=O)N[C@@H](CC(C)C)C(=O)N[C@@H](CC(C)C)C(=O)N[C@@H](C)C(=O)N[C@@H](CCC(N)=O)C(=O)N[C@@H](CCCCN)C(N)=O)C(C)C)[C@@H](C)CC  IC50 (GIPR (Homo sapiens, UniProt P48546); cAMP production, antagonist; BHK; 3 h, 37 °C, added: GIP 50 pM): 0.0162 µM
O=C(C[C@@H]1C/C=C/CCC(=O)O[C@H](c2ccccc2)CNC1=O)NCc1ccc(Cl)cc1  IC50 (Sonic hedgehog protein, N-terminal signaling domain (Homo sapiens, UniProt Q15465); inhibitor): no inhibition
CN[C@@](C)(C[18F])C(=O)O  tracer uptake (DU-145 tumour model; host not given, bone; 15 min, tumour-bearing): 1.7 %ID/g
O=[N+]([O-])c1ccc(CSc2ncnc3c2ncn3[C@@H]2O[C@H](CO)[C@@H](O)[C@H]2O)cc1  IC50 (SLC29A4 (Homo sapiens, UniProt Q7RTT9); transporter uptake, inhibitor, radiometric): 16.8 µM
CC(C)C[C@H](NC(=O)[C@H](Cc1ccccc1)NC(=O)c1cnccn1)B(O)O  IC50 (Proteasome subunit beta 2, alpha/beta1 complex (prcB2, Salinispora tropica, UniProt A4X744)): 3.3 ± 0.2 µM
COC(=O)[C@@]1(O)C[C@H]2O[C@]1(C)n1c3ccccc3c3c4c(c5c6ccccc6n2c5c31)C(=O)NC4  IC50 (ROP18 (Toxoplasma gondii, UniProt Q2PAY2); kinase activity, inhibitor; 3 h, room temperature, added: peptide FL-T 1 µM, 60 µM ATP): 0.059 µM
CC1=C(C(=O)NC(=O)c2cnccn2)C(c2cccc(Cl)c2)NC(=O)N1 (stereo not shown)  IC50 (BCHE): 4.96 ± 0.01 µM
CN1C(=O)[C@]23SS[C@@]1(C)C(=O)N2[C@H]1Nc2ccccc2[C@@]1([C@@]12c4ccccc4N[C@@H]1N1C(=O)[C@@]4(C)SS[C@]1(C(=O)N4C)[C@H]2O)[C@@H]3O  IC50 (NSD2 (Homo sapiens, UniProt O96028); enzyme activity, inhibitor, radiometric): 4.13 µM
C[C@H]1CNCCc2ccc(Cl)cc21  AUC(0-inf) (male Sprague-Dawley rat, plasma; subcutaneous, 0.5 mg/kg, single dose): 33.4 ng·h/mL
COc1ccc(NC(=O)N2CCCCN3[C@H](CN4CCN(C)CC4)[C@H](c4ccc(C#Cc5ccccc5)cc4)[C@@H]3C2)cc1  IC50 (Phenylalanine--tRNA ligase alpha subunit (Plasmodium falciparum, UniProt Q8I246); aminoacylation activity, inhibitor): 0.233 µM
Cc1ccc(Oc2cccc(CC(=O)N3CCNc4nc(C(F)(F)F)ccc4[C@H]3CC(=O)O)c2)cn1  IC50 (BRS3 (Homo sapiens, UniProt P32247); radioligand binding; BALB 3T3 fibroblasts, transfected; 60 min, 21 °C, added: 50 pM iodinated bombesin analogue): 0.495 ± 0.001 µM
CC(C)c1ccc2c(c1)c(SC(C)(C)C)c(CC(C)(C)C(=O)O)n2Cc1ccc(Cl)cc1  IC50 (DNA polymerase Dpo1 exonuclease-deficient; primer extension, inhibitor; Saccharolobus solfataricus): 59.8 ± 18.5 µM
O=C(NCCCCCCCCn1ccc2ccc(F)cc21)Oc1ccccc1  IC50 (BCHE; enzyme activity, inhibitor, HPLC): 3.2 µM and ~4 µM
CC(C)CN(C[C@@H](O)[C@H](Cc1ccccc1)NC(=O)O[C@H]1CO[C@H]2OCC[C@H]21)S(=O)(=O)c1ccc(N)cc1  IC50 (SLCO1B1 (Homo sapiens, UniProt Q9Y6L6); transport, inhibitor; 10 (unit not given), pre-incubation, added: estrone-3-sulfate): 82.5 ± 21 µM
COc1ccc(CNC(=O)Nc2ncc([N+](=O)[O-])s2)cc1  IC50 (GSK3, short isoform (Trypanosoma brucei, UniProt Q388M1); enzyme activity, inhibitor; 90 min, 30 °C, added: ATP 2 µM): 4.3 µM
CCOC(=S)SSC(=S)OCC  IC50 (Carbamate kinase (Giardia intestinalis, UniProt A8BB85); enzyme activity, ATP luminescence): 6.51 µM
CC[C@H](C)[C@H](NC(=O)[C@H](CCCNC(=N)N)NC(=O)[C@H](CO)NC(=O)[C@H](CC(C)C)NC(=O)[C@H](CCCNC(=N)N)NC(=O)[C@H](CCSC)NC(=O)[C@H](C)N)C(=O)N[C@@H](Cc1ccccc1)C(=O)N[C@@H](CCCNC(=N)N)C(=O)N[C@@H](CC(=O)O)C(=O)N[C@@H](Cc1ccccc1)C(=O)N[C@@H](CC(C)C)C(=O)N[C@@H](CC(C)C)C(=O)N[C@@H](CCC(N)=O)C(=O)N[C@@H](CCCNC(=N)N)C(=O)N[C@@H](CCCCN)C(=O)N[C@@H](CCCCN)C(=O)O  IC50 (histidine kinase ComD (Streptococcus pneumoniae serotype 4, UniProt A0A0H2US84); Streptococcus pneumoniae): > 1 µM
CN(Cc1ccc2c(c1)C[C@H](CN=C(N)N)[C@H]2NC(=O)C(=O)Nc1ccc(Cl)c(F)c1)C(=N)N  IC50 (HIV-1 BG505 SOSIP.664; inhibitor, competition ELISA; 10% DMSO): 2.02 ± 0.78 µM
O=C1C(SCCO)=C(SCCO)C(=O)c2ccccc21  IC50 (ERRα (human); reporter gene, antagonist, luciferase reporter qHTS): 9.44 µM
N=C(N)NCCC[C@H](NC(=O)CN)C(=O)N[C@@H](CCCCN)C(=O)N[C@@H](CCCCN)C(=O)N[C@@H](CCCNC(=N)N)C(=O)N[C@@H](CCCNC(=N)N)C(=O)N[C@@H](CCC(N)=O)C(=O)N[C@@H](CCCNC(=N)N)C(=O)N[C@@H](CCCNC(=N)N)C(=O)N[C@@H](CCCNC(=N)N)C(=O)N1CCC[C@H]1C(=O)N[C@@H](CO)C(N)=O  IC50 (human 20S proteasome; chymotrypsin-like activity, inhibitor; added: SDS 0.005%): 0.16 µM
